Assay results collected from several papers.
Lines come from different studies, so protocols differ. ≈ marks a conversion by molar mass, not a printed value.
UniProt P49841, sequence (whole entry, looked up): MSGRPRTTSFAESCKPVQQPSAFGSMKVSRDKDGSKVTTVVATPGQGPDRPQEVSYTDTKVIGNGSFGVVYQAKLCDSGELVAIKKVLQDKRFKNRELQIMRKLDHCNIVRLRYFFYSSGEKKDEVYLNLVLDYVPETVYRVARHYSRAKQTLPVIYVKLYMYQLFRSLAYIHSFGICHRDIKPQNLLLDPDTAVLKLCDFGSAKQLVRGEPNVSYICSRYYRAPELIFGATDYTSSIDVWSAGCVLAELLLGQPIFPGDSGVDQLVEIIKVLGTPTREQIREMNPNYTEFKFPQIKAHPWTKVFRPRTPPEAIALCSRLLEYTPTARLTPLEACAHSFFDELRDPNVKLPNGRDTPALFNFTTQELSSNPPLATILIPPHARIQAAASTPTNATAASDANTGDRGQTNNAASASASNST

Structure (SMILES) | tested on | assay | test system | setting | measurement | result
C[C@@H]1[C@H](O)[C@@H](C)/C=C/C=C/C=C/C=C/C=C/C=C/C=C/[C@H](O[C@@H]2O[C@H](C)[C@@H](O)[C@H](N)[C@@H]2O)C[C@@H]2O[C@](O)(C[C@@H](O)C[C@@H](O)[C@H](O)CC[C@@H](O)C[C@@H](O)CC(=O)O[C@H]1C)C[C@H](O)[C@H]2C(=O)O | Candida albicans | microbial killing, broth dilution | 56214 | 48 h | MFC | 2 µM
C[C@@H]1C[C@@H]([C@H](O)CC2CC(=O)NC(=O)C2)C(=O)[C@@H](C)C1 | Candida albicans | microbial growth, broth dilution | ATCC10 ATCC10231 |  | MIC | 14 µg/mL (≈ 49.8 µM)
C#Cc1ccc(C=NNC(=O)c2cc(Br)cc(Br)c2O)c(O)c1 | Candida albicans | microbial growth |  | pH 7.4 | MIC80 | 2 µg/mL
OC(Cn1cncn1)(Cn1cncn1)c1ccc(F)cc1F | Candida albicans | microbial killing, broth dilution | SP3931 | 48 h | MFC | > 64 µM
CC[C@H](C)C[C@H](C)CCCCCCCCC(=O)N[C@H]1C[C@@H](O)[C@@H](NCCN)NC(=O)[C@@H]2[C@@H](O)CCN2C(=O)[C@H]([C@H](O)CCN)NC(=O)[C@H]([C@H](O)[C@@H](O)c2ccc(O)cc2)NC(=O)[C@@H]2C[C@@H](O)CN2C(=O)[C@H]([C@@H](C)O)NC1=O | Candida albicans | microbial killing, broth dilution | ATCC10231 | 48 h | MFC | 2 µg/mL
Cc1c2ccncc2c(C)c2c1[nH]c1ccccc12 | Candida albicans | microbial growth, broth dilution | SN152 | 24 h | MIC | 128 µg/mL (≈ 520 µM)
C#Cc1ccc(C(=O)NN=Cc2c(O)cccc2C#C)cc1 | Candida albicans | microbial growth |  | pH 7.4 | MIC80 | > 32 µg/mL
[2H]c1c([2H])c([C@]2([2H])CCCN2C(=O)C(C)(C)Oc2ccc3cn[nH]c3c2)c([2H])c([2H])c1C([2H])([2H])[2H] | GSK3B (Homo sapiens, UniProt P49841) | binding, competition with immobilised ligand |  | 1 µM | remaining binding | 88%
C#Cc1cccc(O)c1C=NNC(=O)c1ccc(Br)cc1Br | Candida albicans | microbial growth |  | pH 7.4 | MIC80 | 0.5 µg/mL
O=C(/C=C/c1ccco1)Nc1ncccn1 | Candida albicans | microbial growth |  | 48 h | MIC80 | 25 µM
C[C@@H]1C[C@@H]([C@H](O)CC2CC(=O)NC(=O)C2)C(=O)[C@@H](C)C1 | Candida albicans | microbial growth, broth dilution | ATCC10231 |  | MIC | 3.12 µg/mL (≈ 11.1 µM)

Repeated from above:
Structure (SMILES) | tested on | assay | test system | setting | measurement | result
C#Cc1ccc(C=NNC(=O)c2cc(Br)cc(Br)c2O)c(O)c1 | Candida albicans | microbial growth |  | pH 7.4 | MIC80 | 2 µg/mL
